Assay results from different studies.
EGFR L858R: Epidermal growth factor receptor (EGFR, Homo sapiens, UniProt P00533, L858R)
EGFR: Epidermal growth factor receptor (EGFR, Homo sapiens, UniProt P00533)

| Structure (SMILES) | target | assay | conditions | how to read | measurement | value |
| --- | --- | --- | --- | --- | --- | --- |
| C=CC(=O)N1CCC(C(=O)NCC(=O)N2CCN(c3nc(-c4cnc(N)nc4C(F)F)nc(N4CCOCC4)n3)CC2)CC1 | Epidermal growth factor receptor (EGFR, Homo sapiens, UniProt P00533, A750P/del747-749) | KINOMEscan | 1 µM |  | remaining binding | 100% |
| COc1ccc(-c2nn(-c3ccc(S(C)(=O)=O)cc3)cc2C=N/N=c2\[nH]c(-c3ccc([N+](=O)[O-])cc3)cs2)cc1 | EGFR L858R | kinase activity, inhibitor | 10 µM |  | inhibition | 88.9% |
| C[C@@H](c1ccc(-n2cnc3c(N)ncnc32)cc1)N1CCc2nn(C)c(Cc3ccccc3)c2C1=O | Epidermal growth factor receptor (EGFR, Homo sapiens, UniProt P00533, del752-759) | KINOMEscan | 0.1 µM | baseline: DMSO control | remaining binding | 89% |
| CC(C)Oc1cc(N2CCN(C)CC2)ccc1Nc1nc(N)n(C(=O)NCc2ccccc2S(=O)(=O)C(C)C)n1 | EGFR L858R | enzyme activity | 10 µM | baseline: control | remaining activity | 26% |
| COc1ccc(-c2nn(-c3ccc(S(C)(=O)=O)cc3)cc2/C=N/N=c2\[nH]c(-c3ccc(Br)cc3)cs2)cc1 | EGFR | kinase activity, inhibitor | 10 µM |  | inhibition | 86% |
| O=C(NC1CCC1)c1ccc2nc(-c3cccc(NS(=O)(=O)NCCN4CCCCC4)c3)cn2c1 | EGFR L858R | enzyme activity | 10 µM |  | remaining activity | 100% |
| COc1cc(N2CCN(C)CC2)ccc1Nc1nc(N)n(C(=O)NCc2ccccc2S(=O)(=O)C(C)C)n1 | EGFR | enzyme activity | 10 µM | baseline: control | remaining activity | 10% |
| C=CC(=O)N1CCC(COCC(=O)N2CCN(c3nc(-c4cnc(N)nc4C(F)F)nc(N4CCOC[C@@H]4C)n3)CC2)CC1 | Epidermal growth factor receptor (EGFR, Homo sapiens, UniProt P00533, del746-750) | KINOMEscan | 1 µM | baseline: DMSO control | remaining binding | 100% |
| CC(C)Cc1ccc(-c2nn(-c3ccc(S(C)(=O)=O)cc3)cc2/C=N/N=c2\[nH]c(-c3ccc([N+](=O)[O-])cc3)cs2)cc1 | EGFR | kinase activity, inhibitor | 0.1 µM |  | inhibition | 32% |
| COc1cc(N2CCN(C)CC2)ccc1Nc1nc(N)n(C(=S)NCc2c(Cl)cccc2Cl)n1 | Epidermal growth factor receptor (EGFR, Homo sapiens, UniProt P00533, L858R/T790M) | enzyme activity | 10 µM | baseline: control | remaining activity | 0.8% |
